Measurements gathered from unrelated publications.
A part holds a random share of what one study measured. Positions count from the first letter of the parent shown.

Block 1
Target: FOSL1, bZIP domain (human)
Method: DHFR protein complementation
Sample: yeast
Notes: single substitutions, most at no-binding floor
Baseline: wild-type JUN-FOS pair
Reading: higher = stronger binding
Quantity: binding fitness
Parent: JUN, bZIP domain (human); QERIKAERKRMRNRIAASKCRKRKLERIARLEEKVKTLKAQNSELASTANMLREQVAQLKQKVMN; partner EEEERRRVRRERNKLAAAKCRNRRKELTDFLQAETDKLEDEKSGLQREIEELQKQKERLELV
Q55E: -0.379 natural log
T48F: -0.437 natural log
E44H: -0.575 natural log
E32D: -0.575 natural log
K39C: -1.01 natural log
R53Q: -0.942 natural log
E32T: -0.44 natural log
A57E: -0.343 natural log
N42K: -0.702 natural log
Q58V: -0.365 natural log
A40Q: -0.282 natural log
A49E: -1.37 natural log
Q58N: -0.426 natural log
L38F: -1.5 natural log
A29L: -0.701 natural log
N42W: -1.39 natural log
S47E: -0.197 natural log
V56E: -1.45 natural log
L31T: -1.33 natural log
E44C: -0.747 natural log
L31I: -0.961 natural log
K39V: -0.602 natural log
R30Y: -0.356 natural log
E44I: -0.543 natural log
K36A: -0.278 natural log

Block 2
Target: ABI1, truncated, D143A, DHFR fusion (Arabidopsis thaliana)
Method: DHFR PCA, deep sequencing
Sample: yeast
Notes: methotrexate growth selection, single substitutions
With: (+)-ABA 0.032 µM
Baseline: wild-type fitted maximum
Reading: higher = stronger binding
Quantity: relative binding score
Parent: PYL1, truncated, DHFR fusion (Arabidopsis thaliana); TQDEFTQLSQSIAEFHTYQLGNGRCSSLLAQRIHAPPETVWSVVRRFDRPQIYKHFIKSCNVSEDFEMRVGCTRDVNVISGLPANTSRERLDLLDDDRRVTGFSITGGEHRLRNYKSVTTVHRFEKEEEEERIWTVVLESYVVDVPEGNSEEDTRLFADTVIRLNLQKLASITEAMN
K126R: 47.8%
I172W: -0.803%
E147L: 6.48%
L20D: 22.4%
E67S: 9.68%
S63D: 37.1%
R46E: 7.88%
N77D: 30.5%
A35E: 1.81%
R69Q: 18.8%
Q51M: -4.36%
Y115L: 1.68%
G108A: 3.06%
D96N: 6.73%
E174I: -4.85%
D48F: 5.25%
S9W: 11.5%
S140L: 0.196%
T6E: 45.3%
I33A: 0.0906%
V137Q: -1.27%
R49W: 1.13%
I79H: 15.3%
E152H: 3.91%
Q7V: 26.2%

Block 3
Target: Histone acetyltransferase KAT6A, winged helix 1, GST fusion (KAT6A, Homo sapiens, UniProt Q92794, residues 1-85)
Method: protein binding microarray
Molecule type: double-stranded DNA, one strand shown
Sample: in vitro
Concentration: not given
Notes: 8-mer, flanks averaged, mean of 2 arrays, mostly near background
Baseline: not given
Reading: higher = stronger binding
Quantity: E-score
Construct (chain): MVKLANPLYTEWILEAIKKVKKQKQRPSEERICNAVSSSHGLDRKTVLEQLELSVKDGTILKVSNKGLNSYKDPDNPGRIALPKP
CTATCCAG: -0.169
TCGACCAA: -0.185
GTAGAGTA: -0.07
GTCGCAGA: 0.141
ACAACCCC: 0.034
AATAGAAA: -0.0419
AGGCGGAC: 0.205
GTCCACAC: -0.085
CCCAGGTA: -0.229
AATGATTA: -0.19
CTGTGCCA: -0.155
AGTGGCTA: -0.0954
CCCCGTAG: 0.247
ATCTCCCC: -0.0376
GTACCGCA: 0.326
CTGCTCCC: -0.0606
ATGTTTAA: -0.161
ATATACCG: 0.2
ATCCCGCG: 0.426
AGCTTGGA: -0.3
CATACTGG: -0.0366
AAGGGGCG: 0.127
TCTTTTAA: -0.168
AAGAAAAG: -0.203
AAAATAAA: -0.166

Block 4
Target: Sal-like protein 4, full length isoform B (SALL4, Homo sapiens, UniProt Q9UJQ4-2, residues 1-616)
Method: universal PBM
Molecule type: double-stranded DNA, one strand shown
Sample: in vitro
Concentration: not given
Notes: 8-mer, flanks averaged, mean of replicates
Reading: higher = stronger binding
Quantity: E-score
Residues (chain): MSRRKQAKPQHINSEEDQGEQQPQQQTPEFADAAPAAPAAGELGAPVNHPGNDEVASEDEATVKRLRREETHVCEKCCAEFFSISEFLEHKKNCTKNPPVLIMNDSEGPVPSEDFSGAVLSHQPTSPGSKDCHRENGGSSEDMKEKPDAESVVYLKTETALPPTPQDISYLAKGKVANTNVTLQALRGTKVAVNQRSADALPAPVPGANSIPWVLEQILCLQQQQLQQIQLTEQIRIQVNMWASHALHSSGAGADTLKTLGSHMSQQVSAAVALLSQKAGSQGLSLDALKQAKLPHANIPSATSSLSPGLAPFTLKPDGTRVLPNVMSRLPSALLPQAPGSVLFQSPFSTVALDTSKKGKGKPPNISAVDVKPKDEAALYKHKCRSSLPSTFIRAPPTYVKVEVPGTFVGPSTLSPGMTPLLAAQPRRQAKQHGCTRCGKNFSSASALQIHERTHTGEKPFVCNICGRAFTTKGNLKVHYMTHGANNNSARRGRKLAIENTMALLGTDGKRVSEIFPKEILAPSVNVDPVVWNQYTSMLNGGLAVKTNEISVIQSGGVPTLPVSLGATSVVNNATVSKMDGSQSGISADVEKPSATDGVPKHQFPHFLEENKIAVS
TCTTAACA: 0.14
AAGGTATG: 0.15
CATAGGAA: 0.143
GCTGGGTA: -0.222
AGTAACTG: 0.0939
CGCGAGGC: -0.194
GATTTGGA: 0.132
AAAAGATT: 0.205
AGCCACAC: -0.064
CAAGGTTA: -0.0883
AACGTATT: 0.235
AGGAGGGC: -0.209
AGTCTGTA: 0.0634
GATGTGCC: -0.034
AATGACTG: 0.174
AACAACAT: 0.147

For quick reference, copied from above (block 1):
Q58V: -0.365 natural log
Q55E: -0.379 natural log
L38F: -1.5 natural log
E32D: -0.575 natural log
K36A: -0.278 natural log
L31T: -1.33 natural log
